# Published values pooled from the literature.
# Every numbered part comes from another study and shows a few of its results, in no order. Several values in a cell are separate wells, animals, samples, runs or records.
# Sequence of UniProt P42336 (whole entry, unmodified, looked up): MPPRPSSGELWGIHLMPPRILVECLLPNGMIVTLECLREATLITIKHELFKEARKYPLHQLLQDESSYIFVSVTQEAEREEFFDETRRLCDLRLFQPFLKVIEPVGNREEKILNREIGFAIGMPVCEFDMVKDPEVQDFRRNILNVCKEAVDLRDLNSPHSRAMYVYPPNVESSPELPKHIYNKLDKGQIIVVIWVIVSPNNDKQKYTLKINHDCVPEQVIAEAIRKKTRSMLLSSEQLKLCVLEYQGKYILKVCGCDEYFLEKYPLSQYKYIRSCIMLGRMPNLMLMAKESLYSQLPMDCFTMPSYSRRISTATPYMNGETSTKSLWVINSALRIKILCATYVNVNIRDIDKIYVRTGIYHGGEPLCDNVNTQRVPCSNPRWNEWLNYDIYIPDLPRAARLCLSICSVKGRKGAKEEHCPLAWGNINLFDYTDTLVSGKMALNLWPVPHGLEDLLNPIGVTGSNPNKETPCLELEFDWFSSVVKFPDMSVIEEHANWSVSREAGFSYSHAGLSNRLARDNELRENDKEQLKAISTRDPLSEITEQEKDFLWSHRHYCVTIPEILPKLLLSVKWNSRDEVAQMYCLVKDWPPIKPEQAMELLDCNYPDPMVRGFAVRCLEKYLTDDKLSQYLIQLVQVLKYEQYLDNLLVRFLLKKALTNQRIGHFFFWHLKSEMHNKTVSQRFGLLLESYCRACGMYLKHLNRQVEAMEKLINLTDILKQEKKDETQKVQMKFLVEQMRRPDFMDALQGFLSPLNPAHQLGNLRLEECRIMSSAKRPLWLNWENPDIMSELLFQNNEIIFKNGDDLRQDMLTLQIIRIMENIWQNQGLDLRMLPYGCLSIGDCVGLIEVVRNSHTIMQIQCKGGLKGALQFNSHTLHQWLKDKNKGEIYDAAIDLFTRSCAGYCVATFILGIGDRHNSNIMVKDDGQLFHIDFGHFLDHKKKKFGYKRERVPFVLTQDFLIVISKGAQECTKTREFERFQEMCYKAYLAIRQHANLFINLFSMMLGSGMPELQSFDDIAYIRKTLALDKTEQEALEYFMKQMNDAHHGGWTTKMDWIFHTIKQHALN
# Sequence of UniProt Q56UN5 (whole entry, looked up): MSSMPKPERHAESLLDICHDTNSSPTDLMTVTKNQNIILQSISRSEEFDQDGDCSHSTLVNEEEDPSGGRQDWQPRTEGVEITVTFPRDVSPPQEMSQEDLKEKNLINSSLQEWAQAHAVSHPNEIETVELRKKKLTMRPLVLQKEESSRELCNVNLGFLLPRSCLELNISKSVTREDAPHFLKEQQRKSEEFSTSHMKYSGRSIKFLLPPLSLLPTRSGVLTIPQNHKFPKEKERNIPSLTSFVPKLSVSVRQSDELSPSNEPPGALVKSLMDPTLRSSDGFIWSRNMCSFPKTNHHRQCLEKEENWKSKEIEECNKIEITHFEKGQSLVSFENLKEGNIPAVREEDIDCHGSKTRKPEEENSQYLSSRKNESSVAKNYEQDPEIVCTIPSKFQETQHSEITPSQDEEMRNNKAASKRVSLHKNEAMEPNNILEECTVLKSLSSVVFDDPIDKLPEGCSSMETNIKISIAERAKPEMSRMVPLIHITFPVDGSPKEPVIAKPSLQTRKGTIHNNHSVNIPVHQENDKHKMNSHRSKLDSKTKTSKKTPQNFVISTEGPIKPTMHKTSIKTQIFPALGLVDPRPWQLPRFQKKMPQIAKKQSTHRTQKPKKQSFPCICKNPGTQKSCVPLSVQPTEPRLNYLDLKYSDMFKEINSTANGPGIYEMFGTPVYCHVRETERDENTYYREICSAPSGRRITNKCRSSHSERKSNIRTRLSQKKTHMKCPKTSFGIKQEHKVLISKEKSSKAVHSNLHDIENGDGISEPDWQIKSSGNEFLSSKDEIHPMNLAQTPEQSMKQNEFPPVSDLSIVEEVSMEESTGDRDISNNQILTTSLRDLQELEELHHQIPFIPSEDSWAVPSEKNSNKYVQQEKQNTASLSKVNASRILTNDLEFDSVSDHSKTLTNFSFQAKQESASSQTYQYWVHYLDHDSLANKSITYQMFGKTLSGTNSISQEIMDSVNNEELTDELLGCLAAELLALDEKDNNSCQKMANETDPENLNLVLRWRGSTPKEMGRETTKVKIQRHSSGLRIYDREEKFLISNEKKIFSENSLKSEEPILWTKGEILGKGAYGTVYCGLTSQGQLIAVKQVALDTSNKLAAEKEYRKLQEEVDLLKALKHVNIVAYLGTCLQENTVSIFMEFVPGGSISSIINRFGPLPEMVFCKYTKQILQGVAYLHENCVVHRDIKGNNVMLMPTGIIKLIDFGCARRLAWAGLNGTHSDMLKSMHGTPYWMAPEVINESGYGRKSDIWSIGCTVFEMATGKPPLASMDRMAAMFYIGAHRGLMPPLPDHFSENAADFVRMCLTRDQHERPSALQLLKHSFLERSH
# Sequence of UniProt Q08881 (whole entry, looked up): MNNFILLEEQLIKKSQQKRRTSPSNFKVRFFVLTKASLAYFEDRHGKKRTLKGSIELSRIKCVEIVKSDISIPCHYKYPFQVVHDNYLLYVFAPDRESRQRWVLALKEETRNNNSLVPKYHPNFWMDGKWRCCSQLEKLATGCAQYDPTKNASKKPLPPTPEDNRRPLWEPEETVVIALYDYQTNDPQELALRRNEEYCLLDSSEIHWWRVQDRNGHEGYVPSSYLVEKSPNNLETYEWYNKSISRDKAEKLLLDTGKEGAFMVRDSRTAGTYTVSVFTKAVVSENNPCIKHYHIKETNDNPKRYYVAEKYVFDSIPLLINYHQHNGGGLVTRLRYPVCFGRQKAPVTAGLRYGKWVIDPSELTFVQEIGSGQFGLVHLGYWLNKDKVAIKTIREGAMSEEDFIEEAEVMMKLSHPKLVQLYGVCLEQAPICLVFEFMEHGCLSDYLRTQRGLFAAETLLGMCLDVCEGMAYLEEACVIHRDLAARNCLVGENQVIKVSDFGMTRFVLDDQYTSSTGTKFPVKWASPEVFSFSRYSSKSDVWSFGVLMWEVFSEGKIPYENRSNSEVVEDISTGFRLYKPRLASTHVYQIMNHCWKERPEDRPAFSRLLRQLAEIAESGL
# Sequence of UniProt Q13705 (whole entry, looked up): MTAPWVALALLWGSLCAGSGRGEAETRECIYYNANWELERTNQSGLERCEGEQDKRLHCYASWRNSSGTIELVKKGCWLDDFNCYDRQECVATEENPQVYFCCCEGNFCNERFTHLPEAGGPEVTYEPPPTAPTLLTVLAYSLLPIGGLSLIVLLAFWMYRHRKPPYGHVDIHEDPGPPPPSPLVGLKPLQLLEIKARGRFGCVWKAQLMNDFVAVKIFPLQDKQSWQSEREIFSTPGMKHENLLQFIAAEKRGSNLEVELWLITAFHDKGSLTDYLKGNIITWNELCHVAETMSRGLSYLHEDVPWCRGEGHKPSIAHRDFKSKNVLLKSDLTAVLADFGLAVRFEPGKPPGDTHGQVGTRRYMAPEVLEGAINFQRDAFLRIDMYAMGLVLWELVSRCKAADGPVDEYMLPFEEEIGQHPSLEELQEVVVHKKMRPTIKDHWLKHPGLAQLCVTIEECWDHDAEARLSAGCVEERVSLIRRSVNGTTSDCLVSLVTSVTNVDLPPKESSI
# Sequence of UniProt Q6ZWH5 (whole entry, looked up): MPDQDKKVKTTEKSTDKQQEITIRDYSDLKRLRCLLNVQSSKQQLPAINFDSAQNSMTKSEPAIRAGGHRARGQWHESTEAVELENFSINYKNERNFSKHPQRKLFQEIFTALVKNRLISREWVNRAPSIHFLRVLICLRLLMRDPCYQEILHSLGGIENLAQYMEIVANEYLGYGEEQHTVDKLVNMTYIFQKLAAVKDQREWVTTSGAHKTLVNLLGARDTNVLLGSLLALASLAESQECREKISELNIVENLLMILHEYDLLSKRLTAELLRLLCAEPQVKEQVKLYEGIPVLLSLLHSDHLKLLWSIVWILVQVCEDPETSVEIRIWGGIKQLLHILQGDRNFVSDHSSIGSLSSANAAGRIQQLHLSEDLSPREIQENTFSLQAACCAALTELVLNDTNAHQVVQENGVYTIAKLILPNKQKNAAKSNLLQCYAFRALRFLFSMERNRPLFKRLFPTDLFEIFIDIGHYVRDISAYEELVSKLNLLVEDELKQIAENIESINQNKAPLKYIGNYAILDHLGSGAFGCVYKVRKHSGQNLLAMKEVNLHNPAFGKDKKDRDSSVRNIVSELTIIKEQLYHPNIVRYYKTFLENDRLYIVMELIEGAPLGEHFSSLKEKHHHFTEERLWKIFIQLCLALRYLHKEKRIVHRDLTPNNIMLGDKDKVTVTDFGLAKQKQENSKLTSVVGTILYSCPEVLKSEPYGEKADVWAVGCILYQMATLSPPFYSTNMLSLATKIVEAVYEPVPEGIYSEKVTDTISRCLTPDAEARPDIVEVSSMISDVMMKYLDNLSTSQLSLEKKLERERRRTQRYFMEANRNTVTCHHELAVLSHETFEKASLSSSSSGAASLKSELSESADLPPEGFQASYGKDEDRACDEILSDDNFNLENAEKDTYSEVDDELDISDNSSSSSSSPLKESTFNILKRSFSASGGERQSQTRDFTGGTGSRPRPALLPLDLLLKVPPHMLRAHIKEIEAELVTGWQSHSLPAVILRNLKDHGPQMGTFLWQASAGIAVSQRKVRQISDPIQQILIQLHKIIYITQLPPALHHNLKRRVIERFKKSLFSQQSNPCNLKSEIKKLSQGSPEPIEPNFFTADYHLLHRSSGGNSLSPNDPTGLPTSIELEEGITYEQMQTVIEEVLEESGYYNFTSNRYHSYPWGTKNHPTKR
# Sequence of UniProt Q9UQB9 (whole entry, looked up): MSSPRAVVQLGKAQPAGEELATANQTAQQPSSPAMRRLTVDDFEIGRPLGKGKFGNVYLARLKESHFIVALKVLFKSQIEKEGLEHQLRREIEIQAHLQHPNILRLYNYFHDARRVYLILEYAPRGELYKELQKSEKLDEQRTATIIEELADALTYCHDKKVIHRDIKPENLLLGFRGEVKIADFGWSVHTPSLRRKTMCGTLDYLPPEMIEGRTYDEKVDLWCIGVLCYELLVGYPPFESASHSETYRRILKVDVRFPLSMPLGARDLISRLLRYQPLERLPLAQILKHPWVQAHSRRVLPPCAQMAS

# Study 1
# Target: PABPC1L2, full length, GST fusion (mouse, UniProt A0ABA7IW68)
# Method: RNAcompete
# Form: RNA
# Medium: in vitro
# Concentration: 20 nM
# Setting: 7-mer, probes averaged, single round
# Baseline: mean of 7-mers
# Direction: higher = stronger binding
# Construct (chain): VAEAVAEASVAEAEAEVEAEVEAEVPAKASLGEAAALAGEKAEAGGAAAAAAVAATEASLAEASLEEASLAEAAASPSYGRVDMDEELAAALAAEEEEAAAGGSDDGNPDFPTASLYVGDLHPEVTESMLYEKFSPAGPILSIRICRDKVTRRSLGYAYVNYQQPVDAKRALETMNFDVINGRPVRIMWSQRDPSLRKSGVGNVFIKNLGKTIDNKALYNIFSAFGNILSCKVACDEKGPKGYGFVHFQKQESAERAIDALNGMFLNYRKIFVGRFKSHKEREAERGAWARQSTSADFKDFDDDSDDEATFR
Sequence,7-mer Z-score
AUAGCAG,0.046
AAACUAC,0.82
CACGCAC,-0.0591
AUUAAAG,0.8
CCACUCU,-0.327
CUGCCCG,-0.304
UUUUUGU,-0.244
CAAAGUU,0.187

# Study 2
# SMILES: CCS(=O)(=O)c1cc2cc(C[C@](O)(CC(C)(C)c3ccc(F)cc3C(N)=O)C(F)(F)F)[nH]c2cn1
# Read-out: cell-free assay
# Method: competition with immobilised ligand
# Concentration: 1 µM
target,remaining binding [%]
"Aurora kinase C (AURKC, Homo sapiens, UniProt Q9UQB9)",91
"BMP2K (Homo sapiens, UniProt Q9NSY1)",83
"HIPK4 (Homo sapiens, UniProt Q8NE63)",100
"MAP3K15 (Homo sapiens, UniProt Q6ZN16)",97
"ITK (Homo sapiens, UniProt Q08881)",100
"STK10 (Homo sapiens, UniProt O94804)",100
"MAP3K19 (Homo sapiens, UniProt Q56UN5)",93
"DSTYK (Homo sapiens, UniProt Q6XUX3)",86
"PIK3CA (Homo sapiens, UniProt P42336, H1047Y)",100
"EPHB2 (Homo sapiens, UniProt P29323)",100
"Tyrosine-protein kinase ABL1, non-phosphorylated (ABL1, Homo sapiens, UniProt P00519, H396P)",100
"ACVR2B (Homo sapiens, UniProt Q13705)",98
"GRK4 (Homo sapiens, UniProt P32298)",100
"NEK10 (Homo sapiens, UniProt Q6ZWH5)",100
"Ribosomal protein S6 kinase alpha-6, C-terminal kinase domain (RPS6KA6, Homo sapiens, UniProt Q9UK32)",100
"MINK1 (Homo sapiens, UniProt Q8N4C8)",89

# Study 3
# SMILES: Cc1ccc(NC(=O)c2ccnc(C(F)(F)F)c2)cc1-c1cc(OCCO)nc(N2CCOCC2)c1
# Method: competitive binding panel
# Concentration: 1 µM
# Baseline: vehicle
target,remaining binding [%]
"NLK (Homo sapiens, UniProt Q9UBE8)",100
"MAP4K2 (Homo sapiens, UniProt Q12851)",100
"PIK3CA (Homo sapiens, UniProt P42336)",98

# Mixed results
SMILES,tested on,test,test system,setting,scale,endpoint,value
COc1ccc(-c2c(Nc3ccccn3)[nH]c3c(C4=CCCCC4)c(-c4ccccc4)nn3c2=O)cc1,,,"human, plasma","oral, 50 mg QD",,Ctau,1150 ng/mL and 1090 ng/mL and 1190 ng/mL
Cc1c(NC(=O)c2cccnc2)c(=O)n(-c2ccccc2)n1C,mouse MPNST tumor cells,"high-content nuclear imaging, item: cell number",,"10 µM, 12 h, mean of 2 replicates","baseline: plate mean, higher = more cells",nuclei count,1.07 z-score
O=C1CCC(N2Cc3cc(C4CCN(Cc5ccccc5)CC4)ccc3C2=O)C(=O)N1 (centres unmarked),,,"male Sprague Dawley rats, plasma","oral, 3.0 mg/kg",,AUC(0-inf),396 ng·h/mL
CC(C)n1cnc(-c2ccc(F)cc2)c1-c1ncc(C(=O)Nc2ccc(N3CCN(C)CC3)cc2)[nH]1,,,IPF patients,"60 mg once daily, adverse event",,Gastritis incidence,0%
Cc1ccccc1-c1nc2ccccc2cc1CN(C(=O)CCNC(=O)OC(C)(C)C)c1ccnc(S(C)(=O)=O)n1,,,"human, microsomes or S9","2 µM, 0.5 h",,remaining compound,51%

# Some of these lines once more (study 2):
target,remaining binding [%]
"Aurora kinase C (AURKC, Homo sapiens, UniProt Q9UQB9)",91
"BMP2K (Homo sapiens, UniProt Q9NSY1)",83
"HIPK4 (Homo sapiens, UniProt Q8NE63)",100
"MAP3K15 (Homo sapiens, UniProt Q6ZN16)",97
"ITK (Homo sapiens, UniProt Q08881)",100
